# Measurements from different studies.
# Each numbered part is a random draw from the data of one study; scales do not carry over between parts. Substitutions count along the parent as printed.

# Sample 1 — target: CCNE1, cyclin fold, Cln2 fusion (human); technique: yeast growth competition, sequencing; medium: yeast; notes: strong parent motif; baseline: not given; reading: higher = stronger binding
# Parent: GMNC docking peptide (human); KNAKRNLSSEFAN
Variant,normalised enrichment score
KNAKSNLSSEFAN [R5S],0.251
KNAHRNLSSEFAN [K4H],-0.194
KNAKRNLSSECAN [F11C],0.2
KNAKRNFSSEFAN [L7F],0.321
KNAKRNHSSEFAN [L7H],0.268
KNAKRNLSGEFAN [S9G],0.94
KNAKRNLSSEIAN [F11I],0.154
KNAKRGLSSEFAN [N6G],0.174
KNVKRNLSSEFAN [A3V],2.28
KNAKRNLSPEFAN [S9P],0.661
KNAKRNMSSEFAN [L7M],0.627
KNAKRNLSSAFAN [E10A],0.548
KNAKRNLSSEVAN [F11V],0.213
KWAKRNLSSEFAN [N2W],0.914
KNAKRNGSSEFAN [L7G],-0.05
KNAKRNLSSEFEN [A12E],2.43
KNAKRNLSSWFAN [E10W],1.13
KNAKRNESSEFAN [L7E],0.147

# Sample 2 — technique: RNA Bind-n-Seq; molecule type: RNA; medium: in vitro; tested at: 365 nM; baseline: no-protein control; reading: higher = stronger binding
# Target: RNA binding protein fox-1 homolog 2, RRM domain, GST-SBP tag (RBFOX2, Homo sapiens, UniProt O43251-10, residues 100-194)
# Notes: natural RNA segment, single round, ends assumed
# Constant ends, left off below: GGGAGUUCUACAGUCCGACGAUC … UGGAAUUCUCGGGUGCCAA
# Construct (chain): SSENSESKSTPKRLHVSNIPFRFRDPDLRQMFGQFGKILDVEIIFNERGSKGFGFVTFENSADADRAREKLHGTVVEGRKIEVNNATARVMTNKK
Strand,RBNS enrichment (R)
ACCCUGGGAAAUUUGAGGGACCCCAAAAACUGAGGUCUCCUGCUUUCUCCAUAAUUUGGUCUCCUCUUGGGUUUGGGGAUAGUUCUAAUUUGGAGAGCUGUUUUAUCUCC,0.249
GUGAUGCAUUCAAACUGUCUAGCAAUAGAUCUUUUAAAACGAUGUAAAACCAUUCAGGGUAAUUUUUCUUGUCAGUGGCCAGUGGCAUCCCUGACCUCCAGAAAGAAGCC,0.995
UCUUGUGAUUUUUCUCUGUGAAUCCGUGGGUCUGGCUAGAAGGCCCAAUGCUGUAAAUAUGGGGAUAGUCUGGGUCAGGCCAAUCACUUCCUCUCUCACCCAUUUCGCUU,0.365
UGCACAGCCACCUCAGCCAGCCCCCAGGUAGAAACGUGGGUUAAGCUCUUCCUGCCCCGUUCAGCUUCACUCCCACCCUUUCAGCGUCCUGCCCCUUCACCUUGACCCGG,0.91
UUGUUAGGCCCACCACACGAGUUUACAGGUCUGUGGCAAUACUCUUAACUCAGUAAAGAUGGAAGUGGUAAAGAAACCAAGUAGACAGUAGGGGCUCUUGAGAGUAUUGA,1.23
AGAGCACCUUGUAUAGUAGGUCUGAGUCAAAUAGGACUGAAUUGGUGACAAAGUUUGCACUUACAAAAUCAUGUAAAUAUGUCACAUUUUGUUUUAACAUUUUUUUCAAA,0.404
CCAGAUUCGGAAACUUCAACCUUGGCUGCUGGAGUCCUGUAGUGAUACCUGUAACAAUCAGAAAUUCUUAAUCGCUUGUGGUAUGGUUUUAAUUCUAGAUGUUUUAUCUC,1.21
GUGUUUGGUGCUGACACUCUGAACCCAAAACCAGGGAUCUCUGACAGGCUUGCCUGGCCCCAGGGACACUACUGCUACUGUAGCUGUGGCAGGGACCAACCAGGCUGCCU,0.206
AUGUGGCUGAACAAGCAGGAAGAGUCCUGCUGUGUAAAUUGUAAAUGUCGAGUGCACUUGAUGAAGAAUACCACUCCUUAAAAUGUGUGGAAGAGAGAGAGAGAGACUGA,1.69
CCACUCCACCUGCAAAAGACGAUGGCUCUGUUGUUCUUGGCUUCCUGGUGUGCUUUGAAGGCAGAUGAGCUGGUGAUUUCAUUGGGCACUUGGCCCUUUUCCAAGCACAU,0.483

# Sample 3 — technique: RNA Bind-n-Seq; molecule type: RNA; medium: in vitro; tested at: not given; baseline: input RNA pool; reading: higher = stronger binding
# Target: RING finger protein unkempt homolog, zinc fingers 1-6, GST-SBP tag (UNK, Homo sapiens, UniProt Q9C0B0, residues 30-357)
# Notes: RNA with constant flanks, human and mouse sites, ends assumed
# Constant ends, left off below: GGGAGUUCUACAGUCCGACGAUC … CAACAGAGGAUUGAGCAUCA
# Construct (chain): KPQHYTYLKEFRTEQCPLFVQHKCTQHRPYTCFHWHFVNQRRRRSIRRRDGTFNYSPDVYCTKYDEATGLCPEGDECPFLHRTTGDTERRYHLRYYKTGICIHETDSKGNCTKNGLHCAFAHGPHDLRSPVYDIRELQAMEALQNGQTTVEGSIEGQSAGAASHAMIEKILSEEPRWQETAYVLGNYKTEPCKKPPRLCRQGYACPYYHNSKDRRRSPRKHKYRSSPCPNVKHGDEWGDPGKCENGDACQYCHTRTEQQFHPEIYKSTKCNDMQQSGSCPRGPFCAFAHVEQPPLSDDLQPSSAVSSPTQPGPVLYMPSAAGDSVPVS
Strand,bound/input enrichment [ratio]
GAUCUCGGUGGGCAUGAGCAAGCACGUCGCGUUUGGAAAAAUUAUCUCCCAGCGAUUAAUGGCAUAGUUUUUCUGGUGGACUGUGCGGAUCAUUCUCGUCUCAUGGAAUCCAAAGUUGAG,0.153
GUUAAAGAUUCUUCUCAAGAAGAAGAUGAUAUCAGUUGCGCUGAAAUAGCAGAUGAAGUUUACAUGGAAGUCAUUGUAGGGGAAGAGGAAGGAACUUCUCUCCCUGAGAUUCAGCUUGAG,0.275
UGUCUGCCUCAUUCUAAAAUUUACACAGUAGACCAUUUGUCAUCCAUGCUGUCCCACAAAUAGUUUUUUGUUUACGAUUUAUGACAGGUUUAUGUUACUUCUAUUUGAAUUUCUAUAUUU,8.48
UCCUCACUGGAAAACAUGCUUUUGUUUAACAGUCCUUCUGUUGGCCCUGAUGCUCCCAAGAUAGAGGACUUGAAGUGGCAUUCUGCAUUCUUCAGAAAACAAAUGGGUACUUCCUUGGUU,0.174
CAAAGAAAUUGAUACCUGUUAGCAUUCACUGCCACCAUAUUUUAAGGAGAAAGAACUCUAUUGGUGUCGUCUGAGCAGCCAUUUAAAAAUUGGAAUCUAAAGGAUGGUUGCUGAUGUACU,0.353
GACUUAGAUAAUUCUUUGGAAGUGAAGGCUAAGCCUGCUUCUGGCCUAGAUGGUAAUUUCAAUAGCAUCCGAAUGGAUAUGUUCAGUGUGUAGGAGUGAAGACAGGAUCCCGUGCUUAAA,2.1
ACUGUGCCGGUGUGAAAGCUCUCCAGACUUGCACGCCUCACUGACGCUGCGCACAGAGAUGUGGAAGUGCUGCUGCUGCUGUCUAACGCUGCCUACUAUGUGGCCUAUUAUGAUGACGAA,0.0915
UUAGAAUGUGAAUUCUAUCUGUUAGAACUAAUGGAUUGUUGCUUGAUAGUGUAUCAUCCUUAUAGACCUUUGCUCCAGUAUGUGCAGGACAUGGGCCAAGAAGACAUGUUGCUUCCCCUU,0.316
AAUAUAUUCUUAAAAAUAUGCUUGUUGAUGCUGUCUAAGGAACCAAUGUAUUCAGUAUACCACCCUGAAGUUGUGAUUUAAAAUACUUUAUGUUUUGUGAAAUGAAAAUAAGCAUUUGGG,0.136
CUUGGCUGCUGUGUAGACUUACUUCCUCUGGUAAAGUCUUUACUUCAAAGCAGAUUUGAAGAAUAUGUAAUUGUUGGUUUAAACUGGCUUCAAGCAGUAAUAAAAAGGUGGUGGUCAGAA,0.337
UACCUGCCUAGAAACUGAAAUUUUAAACUUAAUUCAGGUCUUAAUGCCUAAAUUUUCCAUGUGAUGUUUAUAGUCUGUAUUACUUCUCCAAAUAAUGAACUACCUGAUUCAUUGUCCCUU,3.86

# Sample 4 — technique: Sort-seq; refers to: YFP reporter; medium: E. coli; notes: PhoQ-PhoP variant library; together with: 10 µM Mg2+; baseline: high Mg2+ state; reading: higher = stronger signaling
# Substance: PhoQ, residues 284 288 289 292 302 303 SCCLKL
target,fold induction
"PhoP, residues 12 14 15 18 19 LFHKL (Escherichia coli, UniProt P23836)",0.352
"PhoP, residues 12 14 15 18 19 QQAYL (Escherichia coli, UniProt P23836)",5.59
"PhoP, residues 12 14 15 18 19 GMGLL (Escherichia coli, UniProt P23836)",1.87

# Repeated from above (sample 2):
Strand,RBNS enrichment (R)
CCAGAUUCGGAAACUUCAACCUUGGCUGCUGGAGUCCUGUAGUGAUACCUGUAACAAUCAGAAAUUCUUAAUCGCUUGUGGUAUGGUUUUAAUUCUAGAUGUUUUAUCUC,1.21
CCACUCCACCUGCAAAAGACGAUGGCUCUGUUGUUCUUGGCUUCCUGGUGUGCUUUGAAGGCAGAUGAGCUGGUGAUUUCAUUGGGCACUUGGCCCUUUUCCAAGCACAU,0.483
GUGAUGCAUUCAAACUGUCUAGCAAUAGAUCUUUUAAAACGAUGUAAAACCAUUCAGGGUAAUUUUUCUUGUCAGUGGCCAGUGGCAUCCCUGACCUCCAGAAAGAAGCC,0.995
AUGUGGCUGAACAAGCAGGAAGAGUCCUGCUGUGUAAAUUGUAAAUGUCGAGUGCACUUGAUGAAGAAUACCACUCCUUAAAAUGUGUGGAAGAGAGAGAGAGAGACUGA,1.69
GUGUUUGGUGCUGACACUCUGAACCCAAAACCAGGGAUCUCUGACAGGCUUGCCUGGCCCCAGGGACACUACUGCUACUGUAGCUGUGGCAGGGACCAACCAGGCUGCCU,0.206
ACCCUGGGAAAUUUGAGGGACCCCAAAAACUGAGGUCUCCUGCUUUCUCCAUAAUUUGGUCUCCUCUUGGGUUUGGGGAUAGUUCUAAUUUGGAGAGCUGUUUUAUCUCC,0.249
UUGUUAGGCCCACCACACGAGUUUACAGGUCUGUGGCAAUACUCUUAACUCAGUAAAGAUGGAAGUGGUAAAGAAACCAAGUAGACAGUAGGGGCUCUUGAGAGUAUUGA,1.23
